# Experimental data collected from several papers.
# Each line is one published result; not all experiments were run side by side.
# KIT D816V: Mast/stem cell growth factor receptor Kit (KIT, Homo sapiens, UniProt P10721, D816V)
# KIT L576P: Mast/stem cell growth factor receptor Kit (KIT, Homo sapiens, UniProt P10721, L576P)
# KIT V559D: Mast/stem cell growth factor receptor Kit (KIT, Homo sapiens, UniProt P10721, V559D)
# KIT T670I/V559D: Mast/stem cell growth factor receptor Kit (KIT, Homo sapiens, UniProt P10721, T670I/V559D)
# KIT A829P: Mast/stem cell growth factor receptor Kit (KIT, Homo sapiens, UniProt P10721, A829P)
Structure (SMILES),target,assay,conditions,scale,remaining binding
Nc1ncc2c(n1)-c1c([nH]c3ccc(C4=CCOCC4)cc13)CCC2,KIT D816V,"binding, competition with immobilised ligand",1 µM,,100%
CC(C)=CC1OC(C)(C)C2C=C3C(=O)C(Cl)=CC(O)C3C3C(O)C4OC4C(=O)C132 (stereo not drawn),KIT L576P,"cell-free assay, competition with immobilised ligand",10 µM,,99%
CNC(=O)C1CCN(c2cc(C)c(F)cc2NC(=O)c2ccc(-c3cc(O)ccc3C)c(C)c2)CC1,KIT L576P,"binding, competition with immobilised ligand",1 µM,,69%
Cc1ccc(C(=O)Nc2cccc(C(F)(F)F)c2)cc1Nc1cncc(C(N)=O)c1,KIT V559D,"binding, competition with immobilised ligand",1 µM,,0%
CCN1CCN(Cc2ccc(C(=O)Nc3ccc(C)c(NCc4cnc5[nH]ccc5c4OC)c3)cc2C(F)(F)F)CC1,KIT T670I/V559D,"binding, competition with immobilised ligand",1 µM,,2.8%
C=CC(=O)N1CCCC(n2c(=O)c3ncccc3n(Cc3ccc(Oc4ccccc4)cc3)c2=O)C1 (stereo not drawn),KIT V559D,"cell-free assay, competition with immobilised ligand",1 µM,,100%
CN1CCN(Cc2ccc(NC(=O)c3cccc(C#Cc4cnc(N)c5ncccc45)c3)cc2C(F)(F)F)CC1,KIT T670I/V559D,"cell-free assay, competition with immobilised ligand",0.5 µM,,0.1%
COc1c(Cl)cccc1Nc1c(-c2ccncc2C#C[C@@]2(C)CCCN2C(=O)/C=C/CN(C)C)[nH]c2c1C(=O)NCC2,KIT A829P,"binding, competition with immobilised ligand",3 µM,,85%
CC(=O)N1c2ccc(-c3ccc(CNC(=O)c4cn5cc(-c6cnc(N)nc6)nc(N6CCOCC6)c5n4)cc3)cc2CC[C@@H]1C,KIT D816V,KINOMEscan,10 µM,,100%
C=CC(=O)N1CCc2ccc(-n3c(=O)ccc4cnc5ccc(-c6cnn(C)c6)cc5c43)cc21,KIT D816V,KINOMEscan,1 µM,reference: DMSO control,92%
Cc1cnc2nc1Nc1cccc(c1)COC/C=C/COCc1cc(ccc1OCCN1CCOCC1)N2,KIT A829P,binding,0.1 µM,,25%
Cc1ccc(-c2c(/C=C(\C#N)C(=O)NC(C)C)n(CCCO)c3ncnc(N)c23)cc1,KIT A829P,"cell-free assay, competition with immobilised ligand",1 µM,,70%
CCN1CCN(Cc2ccc(NC(=O)c3ccc(C)c(NC(=O)c4cncc(-c5cccs5)c4)c3)cc2C(F)(F)F)CC1,KIT T670I/V559D,"binding, competition with immobilised ligand",1 µM,,1%
CNC1C[S+]2CC[S+]3CC[S+](C1)[Ru-4]321([N]=C=S)[n]2c3ccc(OC)cc3c3c4c(c5cc(F)c[n+]1c5c32)C(=O)NC4=O (stereo not drawn),"KIT (Homo sapiens, UniProt P10721, V559D/V654A)",KinomeScan,0.1 µM,reference: untreated,75%
CNS(=O)(=O)Nc1nccc(Cc2c(C)c3ccc(Oc4ncccc4F)cc3oc2=O)c1F,"KIT (Homo sapiens, UniProt P10721)","binding, competition with immobilised ligand",10 µM,,95%
